Published values pooled from the literature.
Protocols differ between the studies behind these lines. ± gives the spread as reported.
U2AF2: U2AF2 148-342 (Homo sapiens, UniProt P26368)
Sequence of UniProt P26368 (whole entry, looked up): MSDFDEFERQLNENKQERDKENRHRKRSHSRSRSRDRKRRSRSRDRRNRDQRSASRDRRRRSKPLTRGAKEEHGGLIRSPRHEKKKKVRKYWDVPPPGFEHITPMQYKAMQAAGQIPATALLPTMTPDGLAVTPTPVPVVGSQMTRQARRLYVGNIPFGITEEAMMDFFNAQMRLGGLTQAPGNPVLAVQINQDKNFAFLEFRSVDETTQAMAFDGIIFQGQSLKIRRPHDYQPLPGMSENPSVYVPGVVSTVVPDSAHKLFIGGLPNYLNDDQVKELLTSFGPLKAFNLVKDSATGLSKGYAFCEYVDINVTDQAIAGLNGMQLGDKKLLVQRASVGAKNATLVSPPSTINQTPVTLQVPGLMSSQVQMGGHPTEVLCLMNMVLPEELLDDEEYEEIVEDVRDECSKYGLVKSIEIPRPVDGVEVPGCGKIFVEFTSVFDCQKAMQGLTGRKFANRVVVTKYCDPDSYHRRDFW
T1: RAMP2/CALCR extracellular domain fusion 43-143 (Homo sapiens); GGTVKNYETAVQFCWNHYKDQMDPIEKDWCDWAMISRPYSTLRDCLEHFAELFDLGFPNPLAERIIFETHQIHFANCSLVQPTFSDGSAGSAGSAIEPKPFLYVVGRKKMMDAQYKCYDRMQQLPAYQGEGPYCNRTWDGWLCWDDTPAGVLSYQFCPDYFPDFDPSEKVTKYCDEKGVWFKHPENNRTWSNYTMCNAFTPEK
B1: SIGLEC15 20-263 (Homo sapiens, UniProt Q6ZMC9); sequence looked up; chain FVRTKIDTTENLLNTEVHSSPAQRWSMQVPPEVSAEAGDAAVLPCTFTHPHRHYDGPLTAIWRAGEPYAGPQVFRCAAARGSELCQTALSLHGRFRLLGNPRRNDLSLRVERLALADDRRYFCRVEFAGDVHDRYESRHGVRLHVTAAPRIVNISVLPSPAHAFRALCTAEGEPPPALAWSGPALGNSLAAVRSPREGHGHLVTAELPALTHDGRYTCTAANSLGRSEASVYLFRFHGASGAST
B2: human aldolase A; sequence looked up; chain PYQYPALTPEQKKELSDIAHRIVAPGKGILAADESTGSIAKRLQSIGTENTEENRRFYRQLLLTADDRVNPCIGGVILFHETLYQKADDGRPFPQVIKSKGGVVGIKVDKGVVPLAGTNGETTTQGLDGLSERCAQYKKDGADFAKWRCVLKIGEHTPSALAIMENANVLARYASICQQNGIVPIVEPEILPDGDHDLKRCQYVTEKVLAAVYKALSDHHIYLEGTLLKPNMVTPGHACTQKFSHEEIAMATVTALRRTVPPAVTGITFLSGGQSEEEASINLNAINKCPLLKPWALTFSYGRALQASALKAWGGKKENLKAAQEEYVKRALANSLACQGKYTPSGQAGAAASESLFVSNHAY
B3: human SIN3A; sequence looked up; chain MKRRLDDQESPVYAAQQRRIPGSTEAFPHQHRVLAPAPPVYEAVSETMQSATGIQYSVTPSYQVSAMPQSSGSHGPAIAAVHSSHHHPTAVQPHGGQVVQSHAHPAPPVAPVQGQQQFQRLKVEDALSYLDQVKLQFGSQPQVYNDFLDIMKEFKSQSIDTPGVISRVSQLFKGHPDLIMGFNTFLPPGYKIEVQTNDMVNVTTPGQVHQIPTHGIQPQPQPPPQHPSQPSAQSAPAPAQPAPQPPPAKVSKPSQLQAHTPASQQTPPLPPYASPRSPPVQPHTPVTISLGTAPSLQNNQPVEFNHAINYVNKIKNRFQGQPDIYKAFLEILHTYQKEQRNAKEAGGNYTPALTEQEVYAQVARLFKNQEDLLSEFGQFLPDANSSVLLSKTTAEKVDSVRNDHGGTVKKPQLNNKPQRPSQNGCQIRRHPTGTTPPVKKKPKLLNLKDSSMADASKHGGGTESLFFDKVRKALRSAEAYENFLRCLVIFNQEVISRAELVQLVSPFLGKFPELFNWFKNFLGYKESVHLETYPKERATEGIAMEIDYASCKRLGSSYRALPKSYQQPKCTGRTPLCKEVLNDTWVSFPSWSEDSTFVSSKKTQYEEHIYRCEDERFELDVVLETNLATIRVLEAIQKKLSRLSAEEQAKFRLDNTLGGTSEVIHRKALQRIYADKAADIIDGLRKNPSIAVPIVLKRLKMKEEEWREAQRGFNKVWREQNEKYYLKSLDHQGINFKQNDTKVLRSKSLLNEIESIYDERQEQATEENAGVPVGPHLSLAYEDKQILEDAAALIIHHVKRQTGIQKEDKYKIKQIMHHFIPDLLFAQRGDLSDVEEEEEEEMDVDEATGAVKKHNGVGGSPPKSKLLFSNTAAQKLRGMDEVYNLFYVNNNWYIFMRLHQILCLRLLRICSQAERQIEEENREREWEREVLGIKRDKSDSPAIQLRLKEPMDVDVEDYYPAFLDMVRSLLDGNIDSSQYEDSLREMFTIHAYIAFTMDKLIQSIVRQLQHIVSDEICVQVTDLYLAENNNGATGGQLNTQNSRSLLESTYQRKAEQLMSDENCFKLMFIQSQGQVQLTIELLDTEEENSDDPVEAERWSDYVERYMNSDTTSPELREHLAQKPVFLPRNLRRIRKCQRGREQQEKEGKEGNSKKTMENVDSLDKLECRFKLNSYKMVYVIKSEDYMYRRTALLRAHQSHERVSKRLHQRFQAWVDKWTKEHVPREMAAETSKWLMGEGLEGLVPCTTTCDTETLHFVSINKYRVKYGTVFKAP
B4: RSPO4/IgG1 Fc RSPO4 32-137 Q65R/N297Q; CPT2 conjugated via azide click; chain GGNCTGCIICSEENGCSTCQQRLFLFIRREGIRRYGKCLHDCPPGYFGIRGQEVNRCKKCGATCESCFSQDFCIRCKRQFYLYKGKCLPTCPPGTLAHQNTRECQGGGGGSGGGGSGGGGS
B5: ITGAV/ITGB3 ectodomain, soluble, clasped; chain 1 FNLDVDSPAEYSGPEGSYFGFAVDFFVPSASSRMFLLVGAPKANTTQPGIVEGGQVLKCDWSSTRRCQPIEFDATGNRDYAKDDPLEFKSHQWFGASVRSKQDKILACAPLYHWRTEMKQEREPVGTCFLQDGTKTVEYAPCRSQDIDADGQGFCQGGFSIDFTKADRVLLGGPGSFYWQGQLISDQVAEIVSKYDPNVYSIKYNNQLATRTAQAIFDDSYLGYSVAVGDFNGDGIDDFVSGVPRAARTLGMVYIYDGKNMSSLYNFTGEQMAAYFGFSVAATDINGDDYADVFIGAPLFMDRGSDGKLQEVGQVSVSLQRASGDFQTTKLNGFEVFARFGSAIAPLGDLDQDGFNDIAIAAPYGGEDKKGIVYIFNGRSTGLNAVPSQILEGQWAARSMPPSFGYSMKGATDIDKNGYPDLIVGAFGVDRAILYRARPVITVNAGLEVYPSILNQDNKTCSLPGTALKVSCFNVRFCLKADGKGVLPRKLNFQVELLLDKLKQKGAIRRALFLYSRSPSHSKNMTISRGGLMQCEELIAYLRDESEFRDKLTPITIFMEYRLDYRTAADTTGLQPILNQFTPANISRQAHILLDCGEDNVCKPKLEVSVDSDQKKIYIGDDNPLTLIVKAQNQGEGAYEAELIVSIPLQADFIGVVRNNEALARLSCAFKTENQTRQVVCDLGNPMKAGTQLLAGLRFSVHQQSEMDTSVKFDLQIQSSNLFDKVSPVVSHKVDLAVLAAVEIRGVSSPDHVFLPIPNWEHKENPETEEDVGPVVQHIYELRNNGPSSFSKAMLHLQWPYKYNNNTLLYILHYDIDGPMNCTSDMEINPLRIKISSLQTTEKNDTVAGQGERDHLITKRDLALSEGDIHTLGCGVAQCLKIVCQVGRLDRGKSAILYVKSLLWTETFMNKENQNHSYSLKSSASFNVIEFPYKNLPIEDITNSTLVTTNVTWGIQPAPMPV; chain 2 GPNICTTRGVSSCQQCLAVSPMCAWCSDEALPLGSPRCDLKENLLKDNCAPESIEFPVSEARVLEDRPLSDKGSGDSSQVTQVSPQRIALRLRPDDSKNFSIQVRQVEDYPVDIYYLMDLSYSMKDDLWSIQNLGTKLATQMRKLTSNLRIGFGAFVDKPVSPYMYISPPEALENPCYDMKTTCLPMFGYKHVLTLTDQVTRFNEEVKKQSVSRNRDAPEGGFDAIMQATVCDEKIGWRNDASHLLVFTTDAKTHIALDGRLAGIVQPNDGQCHVGSDNHYSASTTMDYPSLGLMTEKLSQKNINLIFAVTENVVNLYQNYSELIPGTTVGVLSMDSSNVLQLIVDAYGKIRSKVELEVRDLPEELSLSFNATCLNNEVIPGLKSCMGLKIGDTVSFSIEAKVRGCPQEKEKSFTIKPVGFKDSLIVQVTFDCDCACQAQAEPNSHRCNNGNGTFECGVCRCGPGWLGSQCECSEEDYRPSQQDECSPREGQPVCSQRGECLCGQCVCHSSDFGKITGKYCECDDFSCVRYKGEMCSGHGQCSCGDCLCDSDWTGYYCNCTTRTDTCMSSNGLLCSGRGKCECGSCVCIQPGSYGDTCEKCPTCPDACTFKKECVECKKFDRGALHDENTCNRYCRDEIESVKELKDTGKDAVNCTYKNEDDCVVRFQYYEDSSGKSILYVVEEPECPKGPD
Sequence of UniProt Q14956 (whole entry, looked up): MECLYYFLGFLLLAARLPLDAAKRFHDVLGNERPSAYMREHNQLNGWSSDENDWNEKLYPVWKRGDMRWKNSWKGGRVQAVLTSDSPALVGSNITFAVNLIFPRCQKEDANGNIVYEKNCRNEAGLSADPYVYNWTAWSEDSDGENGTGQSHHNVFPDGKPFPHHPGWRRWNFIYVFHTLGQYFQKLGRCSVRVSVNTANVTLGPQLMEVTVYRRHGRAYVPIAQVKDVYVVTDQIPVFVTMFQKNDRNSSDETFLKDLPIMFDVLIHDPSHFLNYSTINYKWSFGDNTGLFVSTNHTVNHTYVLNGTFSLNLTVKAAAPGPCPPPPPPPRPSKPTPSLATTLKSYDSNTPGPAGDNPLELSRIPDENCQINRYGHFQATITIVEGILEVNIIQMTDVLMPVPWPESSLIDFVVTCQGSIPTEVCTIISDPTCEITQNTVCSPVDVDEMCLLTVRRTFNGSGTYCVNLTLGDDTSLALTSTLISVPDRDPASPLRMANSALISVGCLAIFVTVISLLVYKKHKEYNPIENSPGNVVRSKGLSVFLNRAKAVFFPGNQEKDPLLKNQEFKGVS
Sequence of UniProt P41587 (whole entry, looked up): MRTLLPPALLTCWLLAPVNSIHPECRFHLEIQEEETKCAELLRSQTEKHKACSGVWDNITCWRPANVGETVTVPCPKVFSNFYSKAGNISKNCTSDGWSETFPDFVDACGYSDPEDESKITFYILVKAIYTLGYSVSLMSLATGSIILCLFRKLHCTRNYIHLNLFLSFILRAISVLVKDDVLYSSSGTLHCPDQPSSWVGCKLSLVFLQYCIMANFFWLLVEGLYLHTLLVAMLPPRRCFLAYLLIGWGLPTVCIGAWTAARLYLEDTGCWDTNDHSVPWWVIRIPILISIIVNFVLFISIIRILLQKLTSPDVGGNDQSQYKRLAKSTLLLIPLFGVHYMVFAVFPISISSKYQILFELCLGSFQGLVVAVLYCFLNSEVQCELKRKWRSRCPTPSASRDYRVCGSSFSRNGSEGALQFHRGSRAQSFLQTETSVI
Sequence of UniProt Q03718 (whole entry, looked up): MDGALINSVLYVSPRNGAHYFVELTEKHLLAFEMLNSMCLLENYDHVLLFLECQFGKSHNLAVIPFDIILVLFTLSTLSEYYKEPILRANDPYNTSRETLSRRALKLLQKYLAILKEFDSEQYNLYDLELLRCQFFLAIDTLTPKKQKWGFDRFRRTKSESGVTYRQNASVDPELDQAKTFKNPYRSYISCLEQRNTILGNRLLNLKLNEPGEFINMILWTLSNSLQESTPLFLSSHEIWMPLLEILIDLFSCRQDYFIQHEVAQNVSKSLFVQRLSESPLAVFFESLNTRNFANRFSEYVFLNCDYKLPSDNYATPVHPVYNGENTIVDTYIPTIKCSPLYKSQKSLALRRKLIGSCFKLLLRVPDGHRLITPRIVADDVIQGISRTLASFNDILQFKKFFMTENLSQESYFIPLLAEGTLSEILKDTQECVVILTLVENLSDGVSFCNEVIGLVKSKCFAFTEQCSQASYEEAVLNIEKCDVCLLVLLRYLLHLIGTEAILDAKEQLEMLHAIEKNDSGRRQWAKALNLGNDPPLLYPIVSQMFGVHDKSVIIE
Sequence of UniProt P01009 (whole entry, looked up): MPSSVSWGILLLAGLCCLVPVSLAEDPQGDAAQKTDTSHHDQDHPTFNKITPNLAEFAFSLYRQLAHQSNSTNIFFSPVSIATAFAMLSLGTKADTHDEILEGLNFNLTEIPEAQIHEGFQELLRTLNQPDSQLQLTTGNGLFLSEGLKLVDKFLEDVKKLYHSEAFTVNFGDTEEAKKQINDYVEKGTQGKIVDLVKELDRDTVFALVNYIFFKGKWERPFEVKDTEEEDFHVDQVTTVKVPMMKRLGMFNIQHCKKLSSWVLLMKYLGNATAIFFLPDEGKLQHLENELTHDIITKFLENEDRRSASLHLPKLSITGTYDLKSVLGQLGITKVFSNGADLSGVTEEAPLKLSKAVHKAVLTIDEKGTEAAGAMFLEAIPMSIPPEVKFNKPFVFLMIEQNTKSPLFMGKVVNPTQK
Sequence of UniProt P43124 (whole entry, looked up): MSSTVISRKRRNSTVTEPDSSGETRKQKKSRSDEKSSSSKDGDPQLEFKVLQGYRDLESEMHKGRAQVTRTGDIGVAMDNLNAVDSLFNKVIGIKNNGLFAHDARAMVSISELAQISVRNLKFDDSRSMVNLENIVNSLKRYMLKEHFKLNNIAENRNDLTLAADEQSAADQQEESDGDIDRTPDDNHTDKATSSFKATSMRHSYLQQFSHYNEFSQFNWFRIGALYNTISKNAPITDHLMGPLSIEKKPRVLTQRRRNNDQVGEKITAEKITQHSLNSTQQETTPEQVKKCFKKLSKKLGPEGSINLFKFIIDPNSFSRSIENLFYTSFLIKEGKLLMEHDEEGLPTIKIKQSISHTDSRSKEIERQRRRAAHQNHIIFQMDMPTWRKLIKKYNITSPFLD

CCUUUGUUU (ssRNA) — Kd (U2AF2; sequencing of bound RNA; RNA; motif only): 13700 nM
FGA (Homo sapiens, UniProt P02671) — cross-linked residues (TTC27 (Homo sapiens, UniProt Q6P3X3); cross-linking MS; together with: DSSO): K100 to K484
SERPINA1 (Homo sapiens, UniProt P01009) — second-order inhibition rate constant (Thrombin mature, plasma-derived (Homo sapiens); inhibition kinetics, amidolytic activity; together with: heparin 0.1 µM): 60 M⁻¹ s⁻¹
CDH23 EC1-2 (Anolis carolinensis) — kon (PCDH15 EC1-2 (Anolis carolinensis); SPR): 30000 M⁻¹ s⁻¹
NSE4 (Saccharomyces cerevisiae, UniProt P43124) — interaction screen (NSE5 (Saccharomyces cerevisiae, UniProt Q03718); cross-linking MS; hits only): cross-linked
B1 (SIGLEC15 20-263) — relative binding (GPNMB extracellular domain 23-498 (Homo sapiens, UniProt Q14956); BLI; Fc fusion; together with: sialidase; baseline: untreated GPNMB, lower = reduced binding after sialidase): 3.12 fold
DYNLRB1/DYNLL1/DYNLT1/DYNC1LI2/DYNC1I2/DYNC1H1 dynein-1 complex (Homo sapiens) — Ka (KASH5/NINL chimera KASH5 CC, NINL LIC-BD, HaloTag; pull-down): > 1.6e+06 M⁻¹
CUACAUUUU (ssRNA) — Kd (U2AF2; sequencing of bound RNA; RNA; motif only): 1640 nM
B2 (human aldolase A) — log2 fold change (PP6C (human); co-immunoprecipitation, IP-MS; CYB5R4 knockout cells; concentration not given; baseline: CYB5R4 knockout over parental): 1.11
RASA2 (Homo sapiens, UniProt Q15283) — cross-linked residues (MAP3K4 (Homo sapiens, UniProt Q9Y6R4); cross-linking MS; together with: DSSO): K820 to K1342
SQELHKLQTYPRTNTGSGTP (salmon calcitonin 13-32 (Salmo salar); N-terminal FITC-Ahx/C-terminal amide) — pKD (T1, RAMP2/CALCR extracellular domain fusion 43-143 (Homo sapiens); fluorescence polarisation; peptide): 5.36
H3C1 N-terminal peptide, K14 crotonyl — ΔH (KAT6A 194-323 (Homo sapiens, UniProt Q92794); ITC; pH 7.5): -4.5 kcal/mol
B3 (human SIN3A) — log2 fold change (CYB5R4 knockout human cells; PP4 interaction, 3xFLAG-PP4C IP-MS; concentration not given; baseline: CYB5R4 KO over parental): 0.46
ING2 PHD finger (Arabidopsis thaliana) — molecule per partner (histone H3 1-10, K4me3; ITC): 1.06 ± 0.01
B4 — cytotoxic IC50 (LGR4 (Homo sapiens, UniProt Q9BXB1); cell viability; Fc fusion, 293T-LGR4; 5 days): 0.1 nM
B5 — EC50 (cyclic RGD peptide, disulfide-cyclized, aminocaproic acid, FITC; fluorescence polarisation; together with: CaCl2 1 mM): 4.4 nM
ADCYAP1 PACAP (Homo sapiens) — pKB (VIPR2 (Homo sapiens, UniProt P41587); cAMP accumulation, antagonist; Cos7; VPAC2, together with: PACAP-27): 36.3 nM
FGB (Homo sapiens, UniProt P02675) — cross-linked residues (PLAA (Homo sapiens, UniProt Q9Y263); cross-linking MS; together with: DSSO): K295 to K179

Excerpt of the above:
CUACAUUUU (ssRNA) — Kd (U2AF2; sequencing of bound RNA; RNA; motif only): 1640 nM
